# Results from different studies.
# ± gives the spread as reported.
SMILES,test,system,setting,scale,measurement,result
Cc1nc(-c2ccc(OCC(C)C)c(C#N)c2)sc1C(=O)O,,"pediatric patients, plasma","oral, 40 mg once daily, fed, PopPK post hoc, weight at least 40 kg",,half-life at steady state,8.71 ± 1.6 h
NC(=O)c1cnc2[nH]ccc2c1N[C@@H]1[C@@H]2CC3C[C@H]1C[C@@](O)(C3)C2,,"healthy Japanese men, plasma","oral, 60 mg, single dose fasted",,half-life,4 h
CC(C)(c1ccc(O)cc1)c1ccc(O)cc1,GC-MS,"exposure tank water with snails, charcoal-filtered tap water","1000 ng/L nominal, 22 °C",,half-life,5.89 h
CCOc1ccc(Cc2cc([C@@H]3S[C@H](CO)[C@@H](O)[C@H](O)[C@H]3O)c(OC)cc2C)cc1,,"Japanese type 2 diabetes patients, plasma","oral, 5 mg single dose, eGFR below 30 mL/min/1.73 m^2",,half-life,13.1 ± 3.62 h
Cn1c(-c2ccc(C(N)=O)cc2F)nnc1C(C)(C)Oc1c(F)cc(Cl)cc1F,,"young Japanese adults, plasma","oral, 50 mg single dose, day 1, high-dose multiple-dose study",,half-life mean,11.3 h
COc1cc(OC)c(/C=C/S(=O)(=O)Cc2ccc(OC)c(NCC(=O)O)c2)c(OC)c1,,"cancer patients, phase I, plasma","oral, 280 mg twice daily, day 1 cycle 1",,half-life,2.81 ± 0.77 h
O=C(NC[C@H]1CN(c2ccc(N3CCOCC3=O)cc2)C(=O)O1)c1ccc(Cl)s1,,renal impairment patients,"oral, 10 mg",baseline: normal renal function,half-life increase,1 to 2 h
Cc1ccc(NC(=O)c2ccc(CN3CCN(C)CC3)cc2)cc1Nc1nccc(-c2cncc(-c3oncc3C)c2)n1,,"healthy volunteers, plasma","oral, 25.0 mg once daily, day 1, 7-day dosing, mean",,half-life,15.3 h

# Repeated from above:
SMILES,test,system,setting,scale,measurement,result
CCOc1ccc(Cc2cc([C@@H]3S[C@H](CO)[C@@H](O)[C@H](O)[C@H]3O)c(OC)cc2C)cc1,,"Japanese type 2 diabetes patients, plasma","oral, 5 mg single dose, eGFR below 30 mL/min/1.73 m^2",,half-life,13.1 ± 3.62 h
